Measurements pooled from the literature.
Parts stem from different laboratories: compare values within a part only.
Sequence of UniProt P60842 (whole entry, looked up): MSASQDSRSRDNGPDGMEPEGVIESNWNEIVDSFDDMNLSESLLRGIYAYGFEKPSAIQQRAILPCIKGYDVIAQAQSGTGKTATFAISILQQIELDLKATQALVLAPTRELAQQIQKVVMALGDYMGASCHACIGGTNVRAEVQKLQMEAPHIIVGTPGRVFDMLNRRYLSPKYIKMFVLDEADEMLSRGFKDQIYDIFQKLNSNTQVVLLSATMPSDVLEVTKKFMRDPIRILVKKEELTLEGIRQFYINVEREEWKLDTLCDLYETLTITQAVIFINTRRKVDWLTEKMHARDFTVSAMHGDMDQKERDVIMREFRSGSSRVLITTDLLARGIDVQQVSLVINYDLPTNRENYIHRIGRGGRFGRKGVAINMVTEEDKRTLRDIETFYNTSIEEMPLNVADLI
Sequence of UniProt P62344 (whole entry, looked up): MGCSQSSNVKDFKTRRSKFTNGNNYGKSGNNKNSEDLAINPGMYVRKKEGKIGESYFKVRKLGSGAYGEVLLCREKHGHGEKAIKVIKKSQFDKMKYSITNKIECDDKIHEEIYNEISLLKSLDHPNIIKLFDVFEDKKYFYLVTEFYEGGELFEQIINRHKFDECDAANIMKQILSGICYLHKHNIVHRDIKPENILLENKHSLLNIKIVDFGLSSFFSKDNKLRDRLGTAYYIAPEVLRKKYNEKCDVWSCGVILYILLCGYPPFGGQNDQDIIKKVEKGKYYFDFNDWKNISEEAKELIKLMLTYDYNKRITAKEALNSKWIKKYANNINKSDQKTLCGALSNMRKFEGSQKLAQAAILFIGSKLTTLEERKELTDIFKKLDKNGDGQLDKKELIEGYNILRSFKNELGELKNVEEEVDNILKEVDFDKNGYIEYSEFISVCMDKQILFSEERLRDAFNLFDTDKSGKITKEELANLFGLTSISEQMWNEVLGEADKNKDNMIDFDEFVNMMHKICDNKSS
Sequence of UniProt P31645 (whole entry, looked up): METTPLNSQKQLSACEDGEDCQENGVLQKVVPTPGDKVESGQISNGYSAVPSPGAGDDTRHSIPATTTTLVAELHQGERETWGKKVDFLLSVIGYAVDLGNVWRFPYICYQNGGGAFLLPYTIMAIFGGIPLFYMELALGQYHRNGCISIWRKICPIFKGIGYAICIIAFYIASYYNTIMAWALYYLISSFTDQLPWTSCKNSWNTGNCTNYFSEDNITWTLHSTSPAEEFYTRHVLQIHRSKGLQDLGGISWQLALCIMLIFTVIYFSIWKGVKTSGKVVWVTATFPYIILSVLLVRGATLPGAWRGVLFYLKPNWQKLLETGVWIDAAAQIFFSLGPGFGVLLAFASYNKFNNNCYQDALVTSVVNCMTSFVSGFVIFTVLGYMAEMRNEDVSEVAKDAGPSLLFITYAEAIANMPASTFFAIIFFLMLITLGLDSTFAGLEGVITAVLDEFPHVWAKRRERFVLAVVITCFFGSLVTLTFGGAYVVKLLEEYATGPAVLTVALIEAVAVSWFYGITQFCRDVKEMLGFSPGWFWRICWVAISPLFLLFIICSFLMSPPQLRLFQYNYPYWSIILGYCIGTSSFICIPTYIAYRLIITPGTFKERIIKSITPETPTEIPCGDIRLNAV

Block 1
Target: Calcium/calmodulin-dependent protein kinase type II subunit alpha (CAMK2A, Homo sapiens, UniProt Q9UQM7)
Sequence of UniProt Q9UQM7 (whole entry, looked up): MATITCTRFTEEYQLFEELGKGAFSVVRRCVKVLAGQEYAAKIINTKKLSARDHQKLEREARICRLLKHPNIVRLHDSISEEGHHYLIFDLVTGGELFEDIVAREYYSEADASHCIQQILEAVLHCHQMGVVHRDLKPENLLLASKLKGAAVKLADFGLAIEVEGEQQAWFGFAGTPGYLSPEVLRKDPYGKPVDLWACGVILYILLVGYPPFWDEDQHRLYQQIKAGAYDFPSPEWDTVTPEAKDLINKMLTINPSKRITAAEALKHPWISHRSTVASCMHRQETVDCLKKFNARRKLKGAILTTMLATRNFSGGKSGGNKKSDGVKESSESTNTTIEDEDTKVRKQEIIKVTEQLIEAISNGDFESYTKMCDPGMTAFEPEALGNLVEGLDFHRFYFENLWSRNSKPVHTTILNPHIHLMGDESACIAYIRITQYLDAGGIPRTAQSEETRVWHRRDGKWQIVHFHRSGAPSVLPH
Effect on: enzyme activity
Mode: inhibitor
Concentration: 10 µM
Measurement: inhibition
Compound = CCCCCCCCCCCCCC(=O)O[C@@H]1[C@@H](C)[C@@]2(O)[C@@H](C=C(CO)C[C@]3(O)C(=O)C(C)=C[C@@H]23)[C@@H]2C(C)(C)[C@]12OC(C)=O; result = -13%
Compound = COc1cc2cc(c1Cl)N(C)C(=O)C[C@H](OC(=O)C(C)C)[C@]1(C)O[C@@H]1[C@H](C)[C@@H]1C[C@@](O)(NC(=O)O1)[C@H](OC)/C=C/C=C(\C)C2; result = -15%
Compound = O=C(CCCN1CCC(n2c(=O)[nH]c3ccccc32)CC1)c1ccc(F)cc1; result = 3%
Compound = C[N+]1(CC2CC2)[C@@H]2C[C@@H](OC(=O)[C@H](CO)c3ccccc3)C[C@H]1[C@@H]1O[C@@H]12 (some centres unmarked); result = 1%

Further values, each from its own experiment
Structure (SMILES) = c1ccc(N2CCN(Cc3nc4ccccc4[nH]3)CC2)nc1; tested on = SLC6A4 (Homo sapiens, UniProt P31645); assay = binding, radioligand binding; measurement = Ki; result = > 10 µM
Structure (SMILES) = COc1ccc([C@@]23Oc4cc(OC)cc(OC)c4[C@]2(O)c2nc(-c4ccccc4)[nH]c(=O)c2[C@H]3c2ccccc2)cc1; tested on = EIF4A1 (Homo sapiens, UniProt P60842); assay = RNA clamping, fluorescence polarization; conditions = concentration not given, mean of two replicates, with: FAM-labelled poly r(AG)8 RNA; measurement = fluorescence polarization change; result = 14.2 mP
Structure (SMILES) = CC(=O)Nc1c(C(C)=O)c(=O)n(C)c2nc(-c3ccc(Cl)cc3Cl)c(-c3ccc(Cl)cc3)cc12; tested on = CDPK1 (Plasmodium falciparum, UniProt P62344); assay = cell-free assay, competition with immobilised ligand; conditions = 1 µM; measurement = remaining binding; result = 95%
Structure (SMILES) = Clc1ncccc1C1Cc2ccccc2C2=NCCN21 (centres unmarked); test system = mouse, microsomes or S9; conditions = 2 µM, 0.5 h; measurement = remaining compound; result = 77.9%

Excerpt of the above (block 1):
Compound = COc1cc2cc(c1Cl)N(C)C(=O)C[C@H](OC(=O)C(C)C)[C@]1(C)O[C@@H]1[C@H](C)[C@@H]1C[C@@](O)(NC(=O)O1)[C@H](OC)/C=C/C=C(\C)C2; result = -15%
